Assay results gathered from unrelated publications.
Parts stem from different laboratories: compare values within a part only. Changes are numbered by the printed parent chain.

Set 1 — target: inorganic phosphate, free oxyanion; method: microfluidic competitive inhibition; medium: in vitro, cell-free expressed; concentration: not given; reading: lower = stronger binding
Notes: derived from inhibition constants, unchanged parent 615000 nM
Starting sequence: PafA, mature enzyme, eGFP fusion (Elizabethkingia meningoseptica, UniProt Q9KJX5); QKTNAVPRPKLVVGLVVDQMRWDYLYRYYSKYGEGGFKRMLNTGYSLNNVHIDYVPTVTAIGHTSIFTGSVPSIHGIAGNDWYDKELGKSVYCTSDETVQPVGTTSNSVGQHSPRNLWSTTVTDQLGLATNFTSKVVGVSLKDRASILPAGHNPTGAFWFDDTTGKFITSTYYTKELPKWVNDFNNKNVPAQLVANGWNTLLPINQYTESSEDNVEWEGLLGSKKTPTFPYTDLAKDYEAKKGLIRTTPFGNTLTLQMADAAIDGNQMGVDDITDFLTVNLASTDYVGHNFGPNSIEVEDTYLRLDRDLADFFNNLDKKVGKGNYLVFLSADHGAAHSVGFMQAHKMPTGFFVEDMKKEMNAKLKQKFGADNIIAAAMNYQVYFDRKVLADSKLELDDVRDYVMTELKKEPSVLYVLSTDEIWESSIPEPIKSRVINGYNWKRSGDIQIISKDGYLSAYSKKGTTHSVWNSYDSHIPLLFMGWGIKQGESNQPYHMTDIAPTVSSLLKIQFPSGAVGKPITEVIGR
| Variant | phosphate dissociation constant [µM] |
| --- | --- |
| T465G | 397 |
| E421G | 526 |
| V403A | 634 |
| H289V | 960 |
| N315G | 611 |
| S140G | 381 |
| G110A | 632 |
| T64G | 826 |
| I509V | 606 |
| G79V | 100 |
| T121G | 460 |
| A240G | 575 |
| D371G | 495 |
| K187G | 590 |
| R307V | 660 |
| V382A | 632 |
| D213G | 164 |
| D355V | 613 |

Set 2 — target: CCND1, cyclin fold, Cln2 fusion (human); method: yeast growth competition, sequencing; medium: yeast; notes: weak parent motif; baseline: not given; reading: higher = stronger binding; starting sequence: viral docking peptide; KKAKRRLFTISDS
| Variant | normalised enrichment score |
| --- | --- |
| R5A | 0.269 |
| F8L | 0.25 |
| R5A L7A | -0.294 |
| S13A | 0.214 |
| K2A | 0.373 |
| I10A | 0.213 |
| S11A | 0.789 |
| R5K | 0.169 |
| F8A | -0.21 |

Set 3 — method: RNA Bind-n-Seq; molecule type: RNA; medium: in vitro; concentration: 365 nM; baseline: no-protein control; reading: higher = stronger binding
Target: RNA binding protein fox-1 homolog 2, RRM domain, GST-SBP tag (RBFOX2, Homo sapiens, UniProt O43251-10, residues 100-194)
Notes: natural RNA segment, single round, ends assumed
Shared flanks, not repeated: GGGAGUUCUACAGUCCGACGAUC … UGGAAUUCUCGGGUGCCAA
Residues (chain): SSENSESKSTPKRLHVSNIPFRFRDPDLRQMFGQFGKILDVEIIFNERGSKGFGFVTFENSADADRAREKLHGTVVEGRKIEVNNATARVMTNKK
| Oligonucleotide | RBNS enrichment (R) |
| --- | --- |
| CUCGAUUGAAGGUGACCUCUGCCCCAGAUAGGUGGUGCCAGUGGCUUAUUAAUUCCGAUACUAGUUUGCUUUGCUGACCAAAUGCCUGGUACCAGAGGAUGGUGAGGCGA | 0.433 |
| AGUUUUUAAUGGCCAUUGUGUAUGAUUUUGAUGCACAACUAGUUAAAAGCCUUUCAUACCAGUCAGUAUUCCCAGCCUUGAGCGCACGCGCGCACACACACACACACAUA | 0.756 |
| UUCCACAUUACAAGUUGAUGUUAUAGGUGGGGGCUGGAAUUGUUGCCCUGGAUGUGGGGACCAAGGUACAAUCUAACCAUGGGCCCCCACAAGGCUUCCUGAAAUCAAAU | 1.45 |
| GUCUUUGGUGCUGUUAACCCUUGGCUCCAUUUGACCAUCAAUCUGAGCAAUGAGCAAAGCAAUAUCAUAUCCAUGUUUAUGUCCCUCCUCCUUCCCUUGCUCCUCCUCUG | 0.518 |
| UUUUUAUUUGAAGUGCCAAAUUAACUUUAGUCAGAAUGUGAGCAGAUGGCUAAGUUCUCUCCUCCCCAGAAUGGAUUAACAGCUGCGUGGAAAGUGGGGGAGAGAGUGGA | 2.28 |
| CCCAAAUAGCUAGGAUCACACUCCAAGUAUGGGCAGUGAUGGCGCUCUGGGGGCCACAGUGGGCUAUCUAGGCCCUCCCUCACCUGAGGCCCAGAGUGGACACAGCUGUU | 0.234 |
| ACCAAUAAUACUUGACGGAAGGCUCAGUAAUUAGUUAUGAAUAUGGAUAUCCUCAAUUCUUAAGACAGCUUGUAAAUGUAUUUGUAAAAAUUGUAUAUAUUUUUACAGAA | 1.17 |
| UUAAAAGUCUACUCAGCUCUAGAUUAGAUACCAGAAGACCCUCUAAGUAACUGAUAACUGAGAUUCGGGACCAUGUCUUGUUUGCCAUUGUGCCCUUGGAAUUUAAUACA | 0.316 |

Other studies, line by line
| SMILES | cell line | concentration | time | quantity | result |
| --- | --- | --- | --- | --- | --- |
| COC1=C[C@@H]2[C@@H]3Cc4ccc(OC)c(O)c4[C@]2(CCN3C)CC1=O | A-375 | 100 µM | 36 h | viability | 92.5% |

Excerpt of the above (set 2):
| Variant | normalised enrichment score |
| --- | --- |
| F8L | 0.25 |
| R5A L7A | -0.294 |
| R5A | 0.269 |
| K2A | 0.373 |
